Measured values of several laboratories.
Each numbered part is a random draw from the data of one study; scales do not carry over between parts. Several values in a cell are separate wells, animals, samples, runs or records.
Sequence of UniProt Q00535 (whole entry, looked up): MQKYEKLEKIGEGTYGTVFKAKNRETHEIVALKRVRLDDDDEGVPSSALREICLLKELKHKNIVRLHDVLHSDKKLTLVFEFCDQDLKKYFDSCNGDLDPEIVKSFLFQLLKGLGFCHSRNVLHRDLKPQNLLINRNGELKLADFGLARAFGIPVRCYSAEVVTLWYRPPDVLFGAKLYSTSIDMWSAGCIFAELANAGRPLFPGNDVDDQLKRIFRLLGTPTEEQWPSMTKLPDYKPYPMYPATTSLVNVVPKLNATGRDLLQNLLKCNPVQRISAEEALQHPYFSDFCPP
Sequence of UniProt O94804 (whole entry, looked up): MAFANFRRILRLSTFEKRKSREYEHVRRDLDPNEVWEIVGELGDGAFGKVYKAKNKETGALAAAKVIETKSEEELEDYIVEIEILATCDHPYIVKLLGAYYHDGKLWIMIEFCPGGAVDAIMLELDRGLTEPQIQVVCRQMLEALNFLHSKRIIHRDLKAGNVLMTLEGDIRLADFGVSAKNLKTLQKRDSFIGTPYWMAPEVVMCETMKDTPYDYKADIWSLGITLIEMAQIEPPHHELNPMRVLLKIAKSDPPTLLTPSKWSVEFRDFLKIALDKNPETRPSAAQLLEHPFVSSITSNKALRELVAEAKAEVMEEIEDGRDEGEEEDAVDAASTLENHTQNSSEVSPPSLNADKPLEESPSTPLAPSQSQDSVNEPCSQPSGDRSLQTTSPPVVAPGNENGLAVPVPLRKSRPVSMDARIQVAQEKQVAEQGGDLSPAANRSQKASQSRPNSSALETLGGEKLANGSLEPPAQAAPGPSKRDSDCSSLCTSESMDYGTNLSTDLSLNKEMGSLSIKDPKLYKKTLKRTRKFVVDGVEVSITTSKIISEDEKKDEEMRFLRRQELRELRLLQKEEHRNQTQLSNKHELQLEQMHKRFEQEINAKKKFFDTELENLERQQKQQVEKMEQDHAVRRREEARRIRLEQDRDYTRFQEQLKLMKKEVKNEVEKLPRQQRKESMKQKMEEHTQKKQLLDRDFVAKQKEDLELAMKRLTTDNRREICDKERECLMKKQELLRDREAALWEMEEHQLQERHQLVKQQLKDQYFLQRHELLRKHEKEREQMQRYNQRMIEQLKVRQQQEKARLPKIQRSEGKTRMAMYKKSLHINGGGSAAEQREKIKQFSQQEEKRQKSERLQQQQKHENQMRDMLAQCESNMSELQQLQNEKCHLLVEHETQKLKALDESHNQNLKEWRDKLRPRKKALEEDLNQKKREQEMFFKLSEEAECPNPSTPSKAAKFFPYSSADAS
Sequence of UniProt Q14164 (whole entry, looked up): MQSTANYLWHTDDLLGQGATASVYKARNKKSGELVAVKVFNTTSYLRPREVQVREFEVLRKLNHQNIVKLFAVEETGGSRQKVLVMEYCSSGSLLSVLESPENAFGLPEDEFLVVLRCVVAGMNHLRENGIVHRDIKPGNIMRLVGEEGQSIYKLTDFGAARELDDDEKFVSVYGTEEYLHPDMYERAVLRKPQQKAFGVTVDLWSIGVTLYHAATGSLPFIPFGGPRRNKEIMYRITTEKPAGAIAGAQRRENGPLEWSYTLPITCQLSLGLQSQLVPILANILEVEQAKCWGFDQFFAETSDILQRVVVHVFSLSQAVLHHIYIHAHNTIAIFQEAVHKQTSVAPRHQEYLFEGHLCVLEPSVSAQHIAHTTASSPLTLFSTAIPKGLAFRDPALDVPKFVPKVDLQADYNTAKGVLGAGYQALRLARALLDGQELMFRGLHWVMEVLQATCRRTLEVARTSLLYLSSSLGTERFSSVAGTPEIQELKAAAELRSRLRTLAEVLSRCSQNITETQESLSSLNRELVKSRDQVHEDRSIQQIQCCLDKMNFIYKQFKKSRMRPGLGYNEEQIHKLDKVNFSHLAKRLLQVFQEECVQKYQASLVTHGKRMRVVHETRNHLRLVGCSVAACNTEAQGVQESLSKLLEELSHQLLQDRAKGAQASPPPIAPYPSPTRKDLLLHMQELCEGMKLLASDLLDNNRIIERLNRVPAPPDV

Set 1 — observed: ligand displacement; concentration: 10 µM
Target: D(3) dopamine receptor (DRD3, Homo sapiens, UniProt P35462)
Sequence of UniProt P35462 (whole entry, looked up): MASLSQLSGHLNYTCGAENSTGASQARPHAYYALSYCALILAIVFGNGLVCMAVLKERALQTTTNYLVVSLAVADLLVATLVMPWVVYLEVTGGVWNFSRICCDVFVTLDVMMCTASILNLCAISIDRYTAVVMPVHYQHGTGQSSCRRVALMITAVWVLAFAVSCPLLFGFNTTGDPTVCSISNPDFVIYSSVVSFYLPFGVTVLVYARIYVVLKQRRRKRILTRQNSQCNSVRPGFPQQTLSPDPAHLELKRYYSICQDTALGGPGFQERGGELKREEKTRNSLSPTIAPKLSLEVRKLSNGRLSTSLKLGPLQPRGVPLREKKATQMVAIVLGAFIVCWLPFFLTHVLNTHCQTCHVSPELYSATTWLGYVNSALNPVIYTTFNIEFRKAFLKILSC
SMILES	inhibition [%]
CNC(=O)Nc1ccc2c(c1)CC[C@]21OC(=O)N(CC(=O)N(Cc2ccc(F)cc2)[C@@H](C)C(F)(F)F)C1=O	1.52
Cc1cc(Nc2nccc(C)n2)cc(-c2cnc([C@@]3(O)CC[C@H](C(=O)O)C(C)(C)C3)s2)c1	-5.53
Nc1nc(NCc2ccccc2)nc(-c2cccc(CO)c2)n1	8.38
O=C(Nc1ccc(Oc2ccc(F)cc2)cc1)N1CCc2ncccc2[C@H]1c1ccc(F)cc1	-2.66
CNC(=N)NCCC[C@H](NC(=O)[C@H](CC(C)C)NC(=O)NNC(=O)[C@H](Cc1ccccc1)NC(=O)[C@H](CO)NC(=O)[C@H](CC(N)=O)NC(=O)[C@@H](Cc1ccncc1)NC(=O)[C@H](N)Cc1ccc(O)cc1)C(=O)N[C@@H](Cc1ccccc1)C(N)=O	-8.85
c1ccc(C2CCN(c3cnc4c(N5CCOCC5)nccn34)CC2)cc1	-6.13
O=S(=O)(NC1CCC(c2cc(F)ccc2F)(S(=O)(=O)c2ccc(Cl)cc2)CC1)C(F)(F)F (stereo not drawn)	21.7
CN1CCN(c2ccnc(NCCc3ccccc3)n2)CC1	22.6
Cc1ccccc1Oc1cc(-n2c(=O)cc(C(F)(F)F)[nH]c2=O)c2ccccc2c1Cl	8.85
COc1cc(C(=O)O)ncc1C#Cc1ccccc1NS(=O)(=O)c1cccc2c(N(C)C)ccnc12	-9.21
C[C@H](c1ccc(F)cc1)N(Cc1cccc(C(=O)O)c1)C(=O)c1cnc2ccccc2c1	-8.16
CN1CCN(c2cnc3c(C4CCN(C(=O)c5ccc(OC(F)(F)F)cc5N)CC4)ncnc3c2)CC1	7.59
CN1CCN(C(=O)C(C)(C)c2ccc(C(=O)Nc3cn4cc(-c5cc(C(C)(C)C)cc(C(C)(C)C)c5)ccc4n3)cc2)CC1	78.9
CN(C)c1ncnc(-c2ccc3nc(Nc4cc(CN5CCN(C(=O)CC(F)(F)F)CC5)ccn4)[nH]c3c2)c1Cl	30.1
CC(=O)N1CCC(c2ccc(C(=O)NC3=NCCN3)cc2C(F)(F)F)CC1	-7.75
NS(=O)(=O)c1cc(NC(=O)Cc2ccccc2)ccc1Oc1cccc(Cl)c1	0.87
Nc1cnc(N2CCc3cc(S(=O)(=O)Nc4c(F)cc(Cl)cc4F)cc(N4CCCC4=O)c32)nc1	7.41
COc1cc(-c2cn(C3CCc4c(F)cccc4N(CC(F)(F)F)C3=O)nn2)ccc1-n1cnc(C)c1 (stereo not drawn)	3.33
CN(C)C(=O)c1sc2nc(N3CCC(S(C)(=O)=O)CC3)cc(C(F)(F)F)c2c1N	-12.5
c1ccc(N2CCN(Cc3nc4ccccc4[nH]3)CC2)nc1	2.41
O=C(NCCCC1CCCCC1)c1ccc(CNC(=O)c2cnn(-c3ccccc3)c2C(F)(F)F)cc1	2.65
Cc1c(NC(=O)c2cc(C(N)=O)nc3cc(F)ccc23)c(C(F)(F)F)nn1Cc1ccc(C#N)cc1	1.46
CCC(F)(F)c1cc(N2CCC(S(C)(=O)=O)CC2)nc2sc(C(N)=O)c(N)c12	51.5

Set 2 — SMILES: COc1cc2ncnc(Nc3ccc(O)c(Br)c3)c2cc1OC; observed: enzyme activity; action: inhibitor; concentration: 0.5 µM; relative to: control
target	remaining activity [%]
OXSR1 (Homo sapiens, UniProt O95747)	98.8
Tyrosine-protein kinase Lyn, isoform B (LYN, Homo sapiens, UniProt P07948)	60
TGFBR1 (Homo sapiens, UniProt P36897)	97.4
IKBKB (Homo sapiens, UniProt O14920)	88
CHEK2 (Homo sapiens, UniProt O96017)	51
DAPK2 (Homo sapiens, UniProt Q9UIK4)	100
Protein kinase C beta type, isoform beta-I (PRKCB, Homo sapiens, UniProt P05771)	96.6
DAPK1 (Homo sapiens, UniProt P53355)	92
MAP3K3 (Homo sapiens, UniProt Q99759)	82
Cyclin-dependent kinase 5, with p25 (CDK5, Homo sapiens, UniProt Q00535)	98.4
NEK2 (Homo sapiens, UniProt P51955)	105
STK39 (Homo sapiens, UniProt Q9UEW8)	87.4
STK10 (Homo sapiens, UniProt O94804)	14.5
MAPK9 (Homo sapiens, UniProt P45984)	88.4
IKBKE (Homo sapiens, UniProt Q14164)	94.6
PRKACA (Homo sapiens, UniProt P17612)	97.7
GRK3 (Homo sapiens, UniProt P35626)	103
Cyclin-dependent kinase 4, with cyclin D1 (CDK4, Homo sapiens, UniProt P11802)	101
TGFBR2 (Homo sapiens, UniProt P37173)	105
CAMK2D (Homo sapiens, UniProt Q13557)	95.7
cGMP-dependent protein kinase 1, isoform beta (PRKG1, Homo sapiens, UniProt Q13976)	88.9
CAMKK2 (Homo sapiens, UniProt Q96RR4)	92.4

Set 3 — observed: enzyme activity; action: inhibitor; concentration: 77 µM
Target: DNA polymerase theta, ATPase domain (POLQ, Homo sapiens, UniProt O75417)
Sequence of UniProt O75417 (whole entry, unmodified, looked up): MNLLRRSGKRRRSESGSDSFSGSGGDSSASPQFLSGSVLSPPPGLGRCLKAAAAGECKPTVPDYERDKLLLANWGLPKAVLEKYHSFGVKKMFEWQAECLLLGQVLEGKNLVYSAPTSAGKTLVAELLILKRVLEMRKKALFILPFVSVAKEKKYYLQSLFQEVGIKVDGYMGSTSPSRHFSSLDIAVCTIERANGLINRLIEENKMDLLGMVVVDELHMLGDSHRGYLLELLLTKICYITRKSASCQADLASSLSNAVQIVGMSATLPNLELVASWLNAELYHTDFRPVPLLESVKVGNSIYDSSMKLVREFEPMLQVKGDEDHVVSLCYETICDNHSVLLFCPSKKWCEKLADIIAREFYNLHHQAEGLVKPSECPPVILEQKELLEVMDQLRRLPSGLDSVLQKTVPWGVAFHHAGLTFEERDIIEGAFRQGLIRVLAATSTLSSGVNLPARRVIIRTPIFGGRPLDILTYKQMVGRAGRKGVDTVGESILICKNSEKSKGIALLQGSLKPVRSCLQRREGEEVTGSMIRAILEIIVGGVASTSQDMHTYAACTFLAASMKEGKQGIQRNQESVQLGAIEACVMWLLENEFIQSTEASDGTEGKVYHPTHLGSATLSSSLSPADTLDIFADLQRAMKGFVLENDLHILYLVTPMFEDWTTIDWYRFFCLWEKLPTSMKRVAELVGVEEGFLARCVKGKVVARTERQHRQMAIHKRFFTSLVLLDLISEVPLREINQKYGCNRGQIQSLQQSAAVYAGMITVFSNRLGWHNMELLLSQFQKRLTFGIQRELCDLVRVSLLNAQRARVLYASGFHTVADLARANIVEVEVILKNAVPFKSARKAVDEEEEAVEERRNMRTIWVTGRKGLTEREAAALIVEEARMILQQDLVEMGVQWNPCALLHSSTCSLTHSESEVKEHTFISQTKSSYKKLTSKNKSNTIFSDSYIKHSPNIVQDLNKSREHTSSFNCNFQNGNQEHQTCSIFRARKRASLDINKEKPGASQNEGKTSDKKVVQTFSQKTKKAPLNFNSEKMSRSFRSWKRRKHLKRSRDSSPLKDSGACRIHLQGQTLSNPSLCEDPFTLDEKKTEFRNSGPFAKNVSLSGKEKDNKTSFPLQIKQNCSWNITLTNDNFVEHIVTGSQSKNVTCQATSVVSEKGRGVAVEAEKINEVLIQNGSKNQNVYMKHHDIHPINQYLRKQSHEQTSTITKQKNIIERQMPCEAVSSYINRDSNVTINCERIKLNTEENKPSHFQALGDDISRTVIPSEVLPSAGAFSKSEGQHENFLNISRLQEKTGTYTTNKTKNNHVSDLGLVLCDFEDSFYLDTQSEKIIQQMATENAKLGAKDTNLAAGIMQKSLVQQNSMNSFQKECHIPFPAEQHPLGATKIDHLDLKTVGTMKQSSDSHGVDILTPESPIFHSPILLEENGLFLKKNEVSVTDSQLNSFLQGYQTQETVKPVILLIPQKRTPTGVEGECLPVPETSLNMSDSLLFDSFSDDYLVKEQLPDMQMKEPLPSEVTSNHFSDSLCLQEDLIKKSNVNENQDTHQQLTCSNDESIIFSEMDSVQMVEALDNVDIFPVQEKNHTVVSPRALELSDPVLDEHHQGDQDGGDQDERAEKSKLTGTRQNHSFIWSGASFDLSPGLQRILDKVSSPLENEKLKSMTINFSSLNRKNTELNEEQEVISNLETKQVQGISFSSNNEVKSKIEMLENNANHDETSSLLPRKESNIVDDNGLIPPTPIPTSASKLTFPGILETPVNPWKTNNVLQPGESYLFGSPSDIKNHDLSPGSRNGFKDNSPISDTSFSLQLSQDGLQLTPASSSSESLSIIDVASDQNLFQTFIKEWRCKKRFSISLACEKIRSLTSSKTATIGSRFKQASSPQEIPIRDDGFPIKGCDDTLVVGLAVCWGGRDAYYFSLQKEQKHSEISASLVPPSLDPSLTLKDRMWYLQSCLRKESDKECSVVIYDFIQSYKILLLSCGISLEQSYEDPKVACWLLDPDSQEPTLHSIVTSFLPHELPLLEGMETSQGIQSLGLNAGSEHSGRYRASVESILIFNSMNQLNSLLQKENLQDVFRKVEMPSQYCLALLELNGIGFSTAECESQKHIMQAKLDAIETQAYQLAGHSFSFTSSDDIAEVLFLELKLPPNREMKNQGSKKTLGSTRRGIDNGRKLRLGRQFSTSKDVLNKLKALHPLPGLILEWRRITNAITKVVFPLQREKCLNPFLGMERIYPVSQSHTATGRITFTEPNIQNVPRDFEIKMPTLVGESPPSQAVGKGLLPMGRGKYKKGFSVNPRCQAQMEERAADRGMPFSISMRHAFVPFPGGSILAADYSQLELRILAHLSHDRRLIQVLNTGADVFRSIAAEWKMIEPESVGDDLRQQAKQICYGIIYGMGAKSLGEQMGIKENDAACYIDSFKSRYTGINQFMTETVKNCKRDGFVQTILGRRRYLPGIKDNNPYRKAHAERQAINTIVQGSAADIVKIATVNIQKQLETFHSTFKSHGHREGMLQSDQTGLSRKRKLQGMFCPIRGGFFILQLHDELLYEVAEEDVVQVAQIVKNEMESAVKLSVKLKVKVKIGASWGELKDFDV
SMILES	remaining activity [%]
Cc1c(N)c(=O)n(-c2ccccc2)n1C	95.8
O=c1n(CCCN2CCN(c3cccc(Cl)c3)CC2)nc2ccccn12	101
CO[C@H]1[C@@H](OC)C[C@H](C)[C@@H](OC)C2=CC(=O)C=C(NC(=O)/C(C)=C/C=C\[C@H](OC)[C@@H](OC(N)=O)/C(C)=C/[C@@H]1C)C2=O	113
CC(C)NC[C@H](O)COc1cccc2[nH]ccc12	105
C[C@]12C=CC(=O)C=C1CC[C@@H]1C2=CC[C@]2(C)[C@@H](C(=O)CN3CCN(c4cc(N5CCCC5)nc(N5CCCC5)n4)CC3)CC[C@@H]12	110
CN(C)CCN1C(=O)c2cccc3cc(N)cc(c23)C1=O	93
C=C(C)[C@@H]1CC[C@]2(CO)CC[C@]3(C)[C@H](CC[C@@H]4[C@@]5(C)CC[C@H](O)C(C)(C)[C@@H]5CC[C@]43C)[C@@H]12	104
Oc1cc2c(c(Cl)c1O)CCNCC2c1ccccc1 (stereo not drawn)	103
CN1CCN(CC(=O)N2c3ccccc3C(=O)Nc3cccnc32)CC1	102
O=C1c2ccccc2-[n+]2ccc3c([nH]c4ccccc43)c21	106
O=S(=O)(c1cccc2cnccc12)N1CCCNCC1	79.2

Set 4 — route: subcutaneous; time: 5 days
Compound: CC(=O)N[C@@H](Cc1c[nH]c2ccccc12)C(=O)N[C@@H](CCC(=O)C=[N+]=[N-])C(=O)OC(C)C
test	system	setting	scale	metabolite peak intensity
UPLC-MS/MS metabolomics, measured: N-delta-acetylornithine	C57BL/6 CES1-/- mice, EL4 tumour, EL4 tumour	0.3 mg/kg/day DON equivalent, normalised to tissue mass	higher = more metabolite	260000 a.u. and 271000 a.u. and 182000 a.u. and 323000 a.u. and 273000 a.u. and 148000 a.u.
LC-MS/MS metabolomics, measured: 2'-deoxyuridine	C57BL/6 CES1-/- mice, EL4 tumour, EL4 tumour	0.3 mg/kg/day DON equivalent, normalised to tissue mass	higher = more metabolite	417000 a.u. and 861000 a.u. and 846000 a.u. and 900000 a.u. and 586000 a.u. and 702000 a.u.
LC-MS/MS metabolomics, measured: 3-hydroxyisobutyrate	C57BL/6 CES1-/- mice, EL4 tumour, EL4 tumour	0.3 mg/kg/day DON equivalent, normalised to tissue mass	higher = more metabolite	5.29e+06 a.u. and 3.96e+06 a.u. and 4.85e+06 a.u. and 8.91e+06 a.u. and 4.46e+06 a.u. and 3.08e+06 a.u.
UPLC-MS/MS, measured: 4-hydroxyglutamate	C57BL/6 CES1-/- mice, EL4 tumour, EL4 tumour	0.3 mg/kg/day DON equivalent		1.11e+06 a.u. and 809000 a.u. and 1.04e+06 a.u. and 257000 a.u. and 293000 a.u. and 1.35e+06 a.u.
UPLC-MS/MS, measured: isovalerylglycine	EL4, C57BL/6 CES1-/- mice, EL4 tumour, tumour	0.3 mg/kg/day DON equivalent, normalised to tissue mass	higher = more metabolite	130000 a.u. and 154000 a.u. and 62600 a.u. and 81000 a.u. and 162000 a.u. and 124000 a.u.
LC-MS/MS, measured: N-acetylmethionine sulfoxide	C57BL/6 CES1-/- mice, EL4 tumour	0.3 mg/kg DON equivalent		8.87e+06 a.u. and 1.62e+07 a.u. and 9.68e+06 a.u. and 1.49e+07 a.u. and 9.8e+06 a.u. and 1.07e+07 a.u.
LC-MS/MS metabolomics, measured: 2-phosphoglycerate	C57BL/6 CES1-/- mice, EL4 tumour, EL4 tumour	0.3 mg/kg/day DON equivalent, normalised to tissue mass	higher = more metabolite	1.25e+07 a.u. and 1.67e+07 a.u. and 1.46e+07 a.u. and 1.18e+07 a.u. and 5.42e+06 a.u. and 1.05e+07 a.u.
UPLC-MS/MS, measured: isocitrate	EL4, C57BL/6 CES1-/- mice, EL4 tumour, tumour	0.3 mg/kg/day DON equivalent, normalised to tissue mass	higher = more metabolite	2.69e+07 a.u. and 1.66e+07 a.u. and 2.12e+07 a.u. and 2.89e+07 a.u. and 2.53e+07 a.u. and 2.82e+07 a.u.
UPLC-MS/MS metabolomics, measured: N-acetylglucosamine 6-phosphate	C57BL/6 CES1-/- mice, EL4 tumour, EL4 tumour	0.3 mg/kg/day DON equivalent, normalised to tissue mass	higher = more metabolite	1.85e+06 a.u. and 2.42e+06 a.u. and 2.72e+06 a.u. and 2.71e+06 a.u. and 1.54e+06 a.u. and 2.56e+06 a.u.
LC-MS/MS metabolomics, measured: oxalate	C57BL/6 CES1-/- mice, EL4 tumour, EL4 tumour	0.3 mg/kg/day DON equivalent	higher = more metabolite	2.15e+06 a.u. and 1.97e+06 a.u. and 1.56e+06 a.u. and 2.4e+06 a.u. and 1.31e+06 a.u. and 2.03e+06 a.u.

A few entries again (set 1):
SMILES	inhibition [%]
CN(C)c1ncnc(-c2ccc3nc(Nc4cc(CN5CCN(C(=O)CC(F)(F)F)CC5)ccn4)[nH]c3c2)c1Cl	30.1
CC(=O)N1CCC(c2ccc(C(=O)NC3=NCCN3)cc2C(F)(F)F)CC1	-7.75
NS(=O)(=O)c1cc(NC(=O)Cc2ccccc2)ccc1Oc1cccc(Cl)c1	0.87
Nc1cnc(N2CCc3cc(S(=O)(=O)Nc4c(F)cc(Cl)cc4F)cc(N4CCCC4=O)c32)nc1	7.41
